# Measured values gathered from unrelated publications.
# Lines come from different studies, so protocols differ. ± marks the error that the study gave.
SMILES,assay,system,setting,scale,endpoint,result
C[C@]1(CO)Cc2ncn(-c3ccc(C#N)c(Cl)c3)c2C(=O)O1,,human,10 mg single dose,,subjects with drug-related dysgeusia,0%
NC(=O)[C@H]1CCN(c2ncnc(N)c2F)C[C@@H]1N1CCC[C@@H](Nc2cc(Cl)cc(C(F)(F)F)c2)C1=O,,B-cell malignancy patients,"oral, 164 mg twice daily, dose",,grade ≥3 bilirubin increase,25%
CC(C)C[C@H](NC(=O)[C@H](CCCCN)NC(=O)OCC1c2ccccc2-c2ccccc21)C(=O)N[C@H](C(=O)N[C@@H](Cc1ccccc1)C(=O)N[C@@H](Cc1ccccc1)C(=O)N[C@@H](CCCCN)C(=O)NCC(=O)N[C@@H](Cc1ccccc1)C(=O)N[C@@H](C)C(=O)N[C@@H](Cc1c[nH]c2ccccc12)C(=O)N[C@@H](CC(N)=O)C(=O)N[C@H](C(=O)N[C@H]1CSSC[C@@H](C(=O)N[C@@H](Cc2c[nH]cn2)C(=O)N[C@@H](CCCNC(=N)N)C(=O)N[C@@H](CCCNC(=N)N)C(=O)N[C@@H](C)C(=O)N[C@@H](CC(N)=O)C(N)=O)NC(=O)[C@H](C(C)C)NC(=O)[C@H](CCCNC(=N)N)NC(=O)[C@H](C(C)C)NC(=O)CNC(=O)[C@H](CC(N)=O)NC(=O)[C@H](CCCNC(=N)N)NC(=O)[C@H](Cc2ccc(O)cc2)NC(=O)[C@H](C(C)C)NC1=O)C(C)C)C(C)C,,"ICR mice, serum","intraperitoneal, 10 mg/kg, day 5",,AST,28.2 ± 1.08 IU/L
COc1ccc([C@@H](O)c2cc(-c3ncnc4cc(N5CCOCC5)ccc34)c(F)cc2Cl)nn1,,"patients, advanced solid tumours","oral, 400 mg twice daily, treatment-emergent, together with: avelumab",,hypotension incidence,1%
O=C(Nc1ccccc1)C1CCN(C(=O)Oc2cccnc2)CC1,psychotropic effects VAS,healthy women,20 mg,"relative to: pre-dose baseline, direction not given",change in Sounds score,0.2
CC(C)CC(=O)OC[C@H]1O[C@@](C#N)(c2ccc3c(N)ncnn23)[C@H](O)[C@@H]1O,plasma protein binding,dog plasma,"90 µM, time not given",,recovery,101%
CCN1[C@@H](C(=O)NC23CCC(C(=O)O)(CC2)CC3)[C@H](c2cccc(Cl)c2F)[C@]2(C(=O)Nc3cc(Cl)ccc32)C12CCCCC2,,patients with advanced solid tumours,"oral, 200 mg",,grade ≥3 febrile neutropenia incidence,50%
CN1CC[C@@H](c2c(O)cc(O)c3c(=O)cc(-c4ccc(C(F)(F)F)cc4Cl)oc23)[C@@H]1CO,measured: Pyrexia,B-cell malignancies,"oral, 200 mg, intermittent dosing",,patients with adverse event,0%
C[C@@H]1OC(=O)NN=C1c1ccc(-c2ccc(F)cc2)c(C(F)(F)F)c1,"phase I trial, measured: Pneumonitis worst grade 3",human patients,"dose not given, all dose groups",,patients with adverse event,20%
CCC[C@@](N)(CO)CCc1ccc(OCCCCCC(C)C)cc1,,"dog, male hounds, plasma","oral capsule, 15 mg/kg, geometric mean",,AUC(0-72 h),16 µM·h
COc1ccnc(C(=O)N[C@H]2COC(=O)[C@H](Cc3ccccc3)[C@@H](OC(=O)C(C)C)[C@H](C)OC2=O)c1OCOC(=O)C(C)C,,"sediment, Swiss lake sand","20 °C, aerobic dark",,DT50,3.3 days
CO[C@H]1C[C@@H]2CC[C@@H](C)[C@@](O)(O2)C(=O)C(=O)N2CCCC[C@H]2C(=O)O[C@H]([C@H](C)C[C@@H]2CC[C@@H](OC(=O)NCCOCCOCCOCCOCCOCCOCCOCCOCCC(=O)N3CCc4cc(Cn5nc(-c6ccc7oc(N)nc7c6)c6c(N)ncnc65)ccc4C3)[C@H](OC)C2)C[C@@H](O)[C@H](C)/C=C(\C)[C@@H](O)[C@@H](OC)C(=O)[C@H](C)C[C@H](C)/C=C/C=C/C=C/1C,"phase 1 dose escalation, measured: pneumonia",advanced solid tumour patients,"intravenous, 10 mg weekly, grade ≥3",,dose-reducing adverse events,0%
CCCCCCCCCCCCCCCC(=O)N[C@@H](CCC(=O)NCCCC[C@H](NC(=O)[C@H](CC(=O)O)NC(=O)[C@H](CO)NC(=O)[C@@H](NC(=O)[C@H](Cc1ccccc1)NC(=O)[C@@H](NC(=O)CNC(=O)[C@H](CCC(N)=O)NC(=O)[C@H](CO)NC(=O)[C@@H](N)Cc1c[nH]cn1)[C@@H](C)O)[C@@H](C)O)C(=O)N[C@@H](CO)C(=O)N[C@@H](CCC(=O)O)C(=O)N[C@@H](Cc1ccc(O)cc1)C(=O)N[C@@H](CC(C)C)C(=O)N[C@@H](CC(=O)O)C(=O)N[C@@H](CO)C(=O)N[C@@H](CCC(=O)O)C(=O)N[C@@H](CCCNC(=N)N)C(=O)N[C@@H](C)C(=O)N[C@@H](CCCNC(=N)N)C(=O)N[C@@H](CC(=O)O)C(=O)N[C@@H](Cc1ccccc1)C(=O)N[C@H](C(=O)N[C@@H](C)C(=O)N[C@@H](Cc1c[nH]c2ccccc12)C(=O)N[C@@H](CC(C)C)C(=O)N[C@@H](CCC(=O)O)C(=O)N[C@@H](C)C(=O)NCC(=O)NCC(=O)O)C(C)C)C(=O)O,measured: Diarrhoea,humans CrCl below 20 mL/min,"subcutaneous, 100 µg single dose",,treatment-related adverse events,0%
COc1cc2c(Oc3ccc4[nH]c(C)cc4c3F)ccnc2cc1OCC1(N)CC1,,paediatric recurrent refractory sarcoma,10 mg,,grade 1 or 2 mouth ulcer,0%
